Published values of several laboratories.
Each line is one published result; not all experiments were run side by side. ± gives the spread as reported.

CN(C)CCCC1(c2ccc(F)cc2)OCc2cc(C#N)ccc21 (stereo not drawn)
Km (N-demethylation, substrate; Beagle dog liver microsomes; 1 h, pH 7.4, low-affinity component): ≥ 0.848 mM

[123I]c1cncc(OC[C@@H]2CCN2)c1
tissue/plasma ratio (SPECT; human, temporal lobe; intravenous bolus plus infusion, 5.2 mCi; relative to: plasma): 19.3

CC[C@H](NC(C)=O)C(=O)N[C@@H](CCCN)C(=O)N[C@@H](CC(C)C)C(=O)N[C@@H](CCC(N)=O)C(=O)Nc1ccc2c(C)cc(=O)oc2c1
solubility (shake-flask HPLC; 1 h, pH 7.2, 37 °C, 5% DMSO, 0.01% Triton X-100): 5.48 ± 0.72 mM

COc1ccc(C[C@@H]2NC(=O)[C@H]([C@@H](C)O)NC(=O)[C@@H]3[C@@H]4CCN3C(=O)[C@@H]3Cc5cn(c6ccc(F)cc56)CCCCCCN(Cc5ccc(cc5)CCNC(=O)[C@]5(C)CCCN5C2=O)C(=O)CCC(=O)N[C@@H](C)C(=O)N[C@H](CNC(=O)CCCCC[N+](C)(C)C)C(=O)N[C@@H](Cc2cccc(c2)CNC(=O)CO4)C(=O)N3)cc1
half-life (healthy fasted humans, plasma; oral, 200 mg single dose, geometric mean, together with: Labrasol 1800 mg): 95.5 h

O=c1[nH]c(Cc2ccccn2)nc2c1cnn2C1CCOCC1
AUC(0-inf) (male human, plasma; oral, 50 mg, single dose): 0.648 µM·h

O=C(Nc1ccc(F)cc1)c1ccc(SCc2cc(OC(F)(F)F)ccc2B(O)O)nc1
AUC (rat; p.o., 1 mg/kg): not detected

CCc1cccc(C)c1N(C(=O)CCl)C(C)COC (stereo not drawn)
remaining amount (LC-MS/MS; herbicide solution; 2 h, 40 °C, together with: 254 nm UV exposure): 25 ± 15.9%

Cc1cc(C(C#N)c2ccc(Cl)cc2)c(Cl)cc1NC(=O)c1cc(I)cc(I)c1O (stereo not drawn)
AUC(0-inf) (parasitized lambs, plasma; oral, 10 mg/kg, together with: moxidectin 0.2 mg/kg oral): 45300 ± 8450 µg·h/mL

CC[C@H](C)[C@H](NC(=O)[C@H](CCCCN)NC(=O)[C@H](CCCCN)NC(=O)[C@H](CC(C)C)NC(=O)[C@H](Cc1c[nH]c2ccccc12)NC(=O)[C@H](Cc1c[nH]c2ccccc12)NC(=O)[C@@H](N)Cc1c[nH]c2ccccc12)C(=O)N[C@@H](Cc1c[nH]c2ccccc12)C(=O)O
LC50 (haemolysis; human erythrocytes; 1 h, 50% haemolysis): 40 µM

CCCCCOc1ccc(-c2cc(-c3ccc(C(=O)N[C@H]4C[C@@H](O)[C@@H](O)NC(=O)[C@@H]5[C@@H](O)[C@@H](C)CN5C(=O)[C@H]([C@H](O)CC(N)=O)NC(=O)[C@H]([C@H](O)[C@@H](O)c5ccc(O)c(OS(=O)(=O)O)c5)NC(=O)[C@@H]5C[C@@H](O)CN5C(=O)[C@H]([C@@H](C)O)NC4=O)cc3)no2)cc1
Tmax (human paediatric patients 2 to 5 years, plasma; intravenous, 4.5 mg/kg once daily, day 7, mean): 1.3 h

CCCCCCCC[N+](C)(C)Cc1ccccc1
unbound fraction in blood (ultrafiltration; human serum): 0.231

O=C(CC(=O)c1ccccc1)c1ccccc1
Tmax (male Sprague-Dawley rat; oral, 250 mg/kg, regular emulsion): 3.33 ± 1.15 h

CC[C@H](C)[C@H](NC(=O)[C@H](C)NC(=O)CNC(=O)[C@H](Cc1ccccc1)NC(=O)[C@H](CC(N)=O)NC(=O)[C@H](CC(N)=O)NC(=O)[C@H](CO)NC(=O)[C@H](CO)NC(=O)[C@H](Cc1c[nH]cn1)NC(=O)[C@@H](NC(=O)[C@H](CC(C)C)NC(=O)[C@H](Cc1ccccc1)NC(=O)[C@H](CC(N)=O)NC(=O)[C@H](C)NC(=O)[C@H](CC(C)C)NC(=O)[C@H](CCCNC(=N)N)NC(=O)[C@H](CCC(N)=O)NC(=O)[C@@H](NC(=O)[C@H](C)NC(=O)[C@@H]1CSSC[C@H](NC(=O)[C@@H](N)CCCCN)C(=O)N[C@@H](CC(N)=O)C(=O)N[C@@H]([C@@H](C)O)C(=O)N[C@@H](C)C(=O)N[C@@H]([C@@H](C)O)C(=O)N1)[C@@H](C)O)C(C)C)C(=O)N[C@@H](CC(C)C)C(=O)N[C@@H](CO)C(=O)N[C@@H](CO)C(=O)N[C@H](C(=O)N[C@@H](CC(N)=O)C(=O)N[C@H](C(=O)NCC(=O)N[C@@H](CO)C(=O)N[C@@H](CC(N)=O)C(=O)N[C@H](C(=O)N[C@@H](Cc1ccc(O)cc1)C(N)=O)[C@@H](C)O)C(C)C)[C@@H](C)O
half-time of amyloid formation (thioflavin T fluorescence; phosphate buffer; 16 µM, pH 7.4, 25 °C): 6.4 ± 1.6 h

CCOCN(C(=O)CCl)c1c(C)cccc1CC
remaining amount (LC-MS/MS; herbicide solution; 2 h, 23 °C, together with: 365 nm UV exposure): 125 ± 3.28%

CN[C@@](C)(C[18F])C(=O)O
tissue uptake (SCID mouse U87 xenograft, bone; 60 min, post injection): 4 ± 1 %ID/g

COc1cccc(C=CC(=O)C=Cc2cccc(OC)c2OC)c1OC
LC50 (fish embryo acute toxicity test; zebrafish (Danio rerio) embryos wild-type; immersion, up to 96 h, 0.1% DMSO): 100 µM

N#Cc1ccc(N2N=C3c4ccc(C(=O)N5CCC(O)CC5)nc4CC[C@@H]3[C@@H]2C2CCCC2)cc1Cl
oral clearance reduction (human; oral, dose not given, together with: itraconazole; relative to: without itraconazole): 51%

CC[C@H](C)[C@H](NC(=O)[C@@H](N)CCCNC(=N)N)C(=O)N[C@H](C(=O)N1CCC[C@H]1C(=O)N[C@@H](C)C(N)=O)C(C)C
Cmax (healthy volunteers, both sexes, plasma; intravenous infusion, 6.5 mg/kg daily, day 7, multiple ascending dose): 31400 ± 6670 ng/mL

CC1(C)S[C@@H]2[C@H](NC(=O)[C@H](C(=O)O)c3ccsc3)C(=O)N2[C@H]1C(=O)O
relative error (rat plasma; 8000 ng/mL, 24 h, room temperature, short-term stability; relative to: nominal concentration): -1%

CC(=O)N[C@H](CCCCNC(=O)C(C)F)C(=O)N[C@@H](CS)C(=O)N[C@@H](CS)C(=O)N[C@@H](CCC(=O)O)C(=O)N[C@@H](Cc1c[nH]cn1)C(=O)N[C@H](Cc1ccccc1)C(=O)N[C@@H](CCCNC(=N)N)C(=O)N[C@@H](Cc1c[nH]c2ccccc12)C(=O)N[C@@H](CS)C(=O)N[C@@H](CCCNC(=N)N)C(=O)N1CCC[C@H]1C(=O)N[C@H](C(N)=O)C(C)C (stereo partly drawn) [fluorine-18 labelled]
tissue uptake (C57BL/6 mice, male, B16-F10 tumour, blood; intravenous, 1 h): 0.9 ± 0.1 %ID/g

CCCCCOc1ccc(-c2ccc(-c3ccc(C(=O)N[C@H]4C[C@@H](O)[C@@H](O)NC(=O)[C@@H]5[C@@H](O)[C@@H](C)CN5C(=O)[C@H]([C@@H](C)O)NC(=O)[C@H]([C@H](O)[C@@H](O)c5ccc(O)cc5)NC(=O)[C@@H]5C[C@@H](O)CN5C(=O)[C@H]([C@@H](C)O)NC4=O)cc3)cc2)cc1
Cmin,ss (human patients aged 5 to sample A years, plasma; iv, loading 3.0 mg/kg then 1.5 mg/kg daily, steady state, median): 2340 ng/mL

CC(C)OC(=O)[C@H](CCC(=O)C=[N+]=[N-])NC(=O)OC(OC(=O)C(C)(C)C)C(C)C (mixture of isomers)
remaining compound (human plasma; 10 µM, 60 min, 37 °C): 100 ± 7%

COc1ccc(-c2ccc3c(N4CCOC[C@@H]4C)nc(N4CCOC[C@@H]4C)nc3n2)cc1CO
incidence of AST increase (human patients; oral, dose not given, related adverse events): 22%

O[C@H]1CCCN[C@@H]1CCCn1cnc2c(Cl)c(Cl)ccc21
AUC (human, plasma; oral, 300 mg, single dose, healthy volunteers): 1.48 µg·h/mL

NC(=O)c1nc(F)c[nH]c1=O
solubility (UV-Vis spectrophotometry; supercritical CO2; 120 min, 308 K, 30 MPa, 929.68 kg/m^3): 1700 µg/mL

O=C(NCCS)c1cccc(C(=O)NCCS)c1
concentration (male Sprague-Dawley rat, plasma; intravenous, 1 mg/kg, 1 h): 154 ng/mL

c1cc2ccc3cccc4ccc(c1)c2c34
tissue concentration (HPLC-fluorescence; Wistar rat, male, kidney; oral, 4 mg/kg, 24 h): 13.8 ± 2.1 ng/g

Nc1nc(N)nc(N)n1
serum concentration (CD IGS rat, female, pregnant, serum; oral, 1000 mg/kg/day, 10 days, with rectangular renal crystals): 89000 to 683000 ng/mL

CSCC[C@@H]1NC(=O)[C@H](CC(=O)O)NC(=O)CNC(=O)[C@H](CCCNC(=N)N)NC(=O)[C@H](C)NC(=O)[C@H](CCC(=O)O)NC(=O)[C@H](CCCNC(=N)N)NC(=O)[C@@H]2CSSC[C@@H]3NC(=O)[C@H](CO)NC(=O)[C@H]([C@@H](C)O)NC(=O)[C@@H]4CCCN4C(=O)[C@H](C)NC(=O)[C@H](Cc4c[nH]c5ccccc45)NC(=O)[C@H](CC(=O)O)NC(=O)CNC(=O)[C@H](CCCNC(=N)N)NC(=O)CNC(=O)[C@H](CCC(N)=O)NC(=O)[C@@H]4CCCN4C(=O)[C@@H](NC(=O)CNC(=O)C(C)F)CSSC[C@H](NC(=O)CNC(=O)[C@H](C)NC(=O)[C@H](CC(C)C)NC(=O)[C@H](CSSC[C@@H](C(=O)NCC(N)=O)NC(=O)[C@H]([C@@H](C)O)NC(=O)[C@H](CCCNC(=N)N)NC(=O)[C@@H]4CCCN4C1=O)NC(=O)[C@H](CC(=O)O)NC(=O)[C@H](CO)NC(=O)[C@H](CC(=O)O)NC(=O)[C@H](CCC(N)=O)NC(=O)[C@H](CO)NC3=O)C(=O)N[C@@H](C(C)C)C(=O)N2 (stereo partly drawn) [fluorine-18 labelled]
tissue uptake (nude mice U-87 MG xenograft, lungs; intravenous, 0.5 h): 1.73 ± 0.27 %ID/g

CC(C)C[C@@H](NC(=O)[C@H](Cc1cccc2ccccc12)NC(=O)[C@H](CNC(=O)c1ccc(F)nc1)NC(=O)[C@H](CO)NC(=O)C1CCNCC1)C(=O)N[C@@H](CO)C(=O)N1CCC[C@H]1C(=O)N[C@H](C(N)=O)[C@@H](C)O
half-life (chemical stability; male human, serum; 1 mM, pH 7.4): > 24 h

A few entries again:
Nc1nc(N)nc(N)n1
serum concentration (CD IGS rat, female, pregnant, serum; oral, 1000 mg/kg/day, 10 days, with rectangular renal crystals): 89000 to 683000 ng/mL

CC[C@H](C)[C@H](NC(=O)[C@H](CCCCN)NC(=O)[C@H](CCCCN)NC(=O)[C@H](CC(C)C)NC(=O)[C@H](Cc1c[nH]c2ccccc12)NC(=O)[C@H](Cc1c[nH]c2ccccc12)NC(=O)[C@@H](N)Cc1c[nH]c2ccccc12)C(=O)N[C@@H](Cc1c[nH]c2ccccc12)C(=O)O
LC50 (haemolysis; human erythrocytes; 1 h, 50% haemolysis): 40 µM

CC(C)OC(=O)[C@H](CCC(=O)C=[N+]=[N-])NC(=O)OC(OC(=O)C(C)(C)C)C(C)C (mixture of isomers)
remaining compound (human plasma; 10 µM, 60 min, 37 °C): 100 ± 7%

Cc1cc(C(C#N)c2ccc(Cl)cc2)c(Cl)cc1NC(=O)c1cc(I)cc(I)c1O (stereo not drawn)
AUC(0-inf) (parasitized lambs, plasma; oral, 10 mg/kg, together with: moxidectin 0.2 mg/kg oral): 45300 ± 8450 µg·h/mL
